Measurements of several laboratories.
Every numbered part comes from another study and shows a few of its results, in no order. “And” joins repeats or separate records; there may be more than shown.
UniProt O95835, sequence (whole entry, looked up): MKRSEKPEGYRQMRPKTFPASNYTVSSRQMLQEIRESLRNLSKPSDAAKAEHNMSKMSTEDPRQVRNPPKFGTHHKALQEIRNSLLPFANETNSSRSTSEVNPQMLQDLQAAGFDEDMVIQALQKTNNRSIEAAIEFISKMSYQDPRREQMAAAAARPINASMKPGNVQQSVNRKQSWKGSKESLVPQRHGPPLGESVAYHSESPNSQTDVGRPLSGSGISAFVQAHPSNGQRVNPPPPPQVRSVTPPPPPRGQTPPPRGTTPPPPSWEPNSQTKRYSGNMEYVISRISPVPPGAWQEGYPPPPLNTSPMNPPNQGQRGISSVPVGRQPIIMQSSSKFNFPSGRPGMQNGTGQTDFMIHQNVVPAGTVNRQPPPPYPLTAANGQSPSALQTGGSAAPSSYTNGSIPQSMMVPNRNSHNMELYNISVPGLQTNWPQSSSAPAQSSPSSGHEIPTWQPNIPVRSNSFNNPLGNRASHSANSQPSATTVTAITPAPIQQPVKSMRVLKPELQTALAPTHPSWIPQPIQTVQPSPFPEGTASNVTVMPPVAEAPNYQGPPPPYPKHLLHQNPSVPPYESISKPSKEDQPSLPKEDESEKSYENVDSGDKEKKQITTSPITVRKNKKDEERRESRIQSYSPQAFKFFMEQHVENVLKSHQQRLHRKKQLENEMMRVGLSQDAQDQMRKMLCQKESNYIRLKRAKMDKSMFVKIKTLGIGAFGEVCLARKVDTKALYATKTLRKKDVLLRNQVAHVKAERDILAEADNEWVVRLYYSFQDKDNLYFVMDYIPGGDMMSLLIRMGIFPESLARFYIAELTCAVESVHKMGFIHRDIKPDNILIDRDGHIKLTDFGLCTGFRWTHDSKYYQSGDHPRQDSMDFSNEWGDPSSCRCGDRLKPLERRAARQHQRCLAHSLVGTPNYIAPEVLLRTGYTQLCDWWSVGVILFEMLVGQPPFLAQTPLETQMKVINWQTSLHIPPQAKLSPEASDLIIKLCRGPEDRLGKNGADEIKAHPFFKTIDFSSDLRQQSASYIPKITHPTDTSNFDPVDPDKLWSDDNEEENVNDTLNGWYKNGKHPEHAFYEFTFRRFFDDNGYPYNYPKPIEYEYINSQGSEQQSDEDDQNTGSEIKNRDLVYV
UniProt P07332, sequence (whole entry, looked up): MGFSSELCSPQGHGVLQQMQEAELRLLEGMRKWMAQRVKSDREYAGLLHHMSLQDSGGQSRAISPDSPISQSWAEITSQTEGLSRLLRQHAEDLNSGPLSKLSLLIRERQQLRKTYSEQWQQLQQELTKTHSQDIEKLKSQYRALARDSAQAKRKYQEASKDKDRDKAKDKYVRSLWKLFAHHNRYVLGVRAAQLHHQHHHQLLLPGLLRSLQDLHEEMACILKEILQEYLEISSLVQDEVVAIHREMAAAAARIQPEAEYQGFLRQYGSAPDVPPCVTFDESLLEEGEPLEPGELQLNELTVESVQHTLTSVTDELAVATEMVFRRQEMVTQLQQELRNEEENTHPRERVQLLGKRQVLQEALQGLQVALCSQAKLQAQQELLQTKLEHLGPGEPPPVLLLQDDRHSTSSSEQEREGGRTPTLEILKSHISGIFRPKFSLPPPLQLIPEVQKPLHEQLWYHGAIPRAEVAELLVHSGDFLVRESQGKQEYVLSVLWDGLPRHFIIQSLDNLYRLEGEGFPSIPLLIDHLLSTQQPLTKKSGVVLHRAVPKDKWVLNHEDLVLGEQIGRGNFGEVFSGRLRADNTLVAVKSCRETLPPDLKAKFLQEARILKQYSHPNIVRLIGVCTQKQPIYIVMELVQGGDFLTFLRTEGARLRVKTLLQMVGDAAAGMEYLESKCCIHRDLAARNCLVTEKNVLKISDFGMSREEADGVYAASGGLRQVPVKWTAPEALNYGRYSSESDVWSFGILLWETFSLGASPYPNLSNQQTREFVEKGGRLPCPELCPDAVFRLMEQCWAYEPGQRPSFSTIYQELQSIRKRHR
UniProt Q9HCP0, sequence (whole entry, looked up): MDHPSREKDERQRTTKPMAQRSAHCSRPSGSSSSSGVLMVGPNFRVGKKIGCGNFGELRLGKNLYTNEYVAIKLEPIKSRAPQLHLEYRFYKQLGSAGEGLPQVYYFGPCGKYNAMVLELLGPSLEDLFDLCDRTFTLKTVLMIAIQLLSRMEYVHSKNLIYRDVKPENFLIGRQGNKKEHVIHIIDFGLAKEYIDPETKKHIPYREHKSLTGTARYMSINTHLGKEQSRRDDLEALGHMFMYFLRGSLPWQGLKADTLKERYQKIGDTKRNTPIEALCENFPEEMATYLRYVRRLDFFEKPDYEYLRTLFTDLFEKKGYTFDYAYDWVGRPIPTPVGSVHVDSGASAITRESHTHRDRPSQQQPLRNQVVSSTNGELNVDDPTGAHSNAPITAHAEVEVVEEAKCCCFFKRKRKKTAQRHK
UniProt P42679, sequence (whole entry, looked up): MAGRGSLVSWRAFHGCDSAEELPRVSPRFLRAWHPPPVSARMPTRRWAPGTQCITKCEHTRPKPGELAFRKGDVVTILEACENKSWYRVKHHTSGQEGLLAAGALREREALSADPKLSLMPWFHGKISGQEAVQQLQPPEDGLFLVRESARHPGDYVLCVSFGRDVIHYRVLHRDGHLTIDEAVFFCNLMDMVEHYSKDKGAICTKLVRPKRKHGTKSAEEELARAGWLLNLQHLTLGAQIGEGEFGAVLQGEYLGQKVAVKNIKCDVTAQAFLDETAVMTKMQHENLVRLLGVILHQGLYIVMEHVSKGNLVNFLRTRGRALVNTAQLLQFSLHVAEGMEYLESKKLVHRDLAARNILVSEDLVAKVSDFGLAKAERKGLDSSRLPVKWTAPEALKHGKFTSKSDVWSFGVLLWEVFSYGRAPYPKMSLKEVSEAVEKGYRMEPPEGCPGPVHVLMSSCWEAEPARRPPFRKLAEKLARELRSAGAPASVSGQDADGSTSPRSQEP

Set 1
Target: Mast/stem cell growth factor receptor Kit (KIT, Homo sapiens, UniProt P10721)
UniProt P10721, sequence (whole entry, looked up): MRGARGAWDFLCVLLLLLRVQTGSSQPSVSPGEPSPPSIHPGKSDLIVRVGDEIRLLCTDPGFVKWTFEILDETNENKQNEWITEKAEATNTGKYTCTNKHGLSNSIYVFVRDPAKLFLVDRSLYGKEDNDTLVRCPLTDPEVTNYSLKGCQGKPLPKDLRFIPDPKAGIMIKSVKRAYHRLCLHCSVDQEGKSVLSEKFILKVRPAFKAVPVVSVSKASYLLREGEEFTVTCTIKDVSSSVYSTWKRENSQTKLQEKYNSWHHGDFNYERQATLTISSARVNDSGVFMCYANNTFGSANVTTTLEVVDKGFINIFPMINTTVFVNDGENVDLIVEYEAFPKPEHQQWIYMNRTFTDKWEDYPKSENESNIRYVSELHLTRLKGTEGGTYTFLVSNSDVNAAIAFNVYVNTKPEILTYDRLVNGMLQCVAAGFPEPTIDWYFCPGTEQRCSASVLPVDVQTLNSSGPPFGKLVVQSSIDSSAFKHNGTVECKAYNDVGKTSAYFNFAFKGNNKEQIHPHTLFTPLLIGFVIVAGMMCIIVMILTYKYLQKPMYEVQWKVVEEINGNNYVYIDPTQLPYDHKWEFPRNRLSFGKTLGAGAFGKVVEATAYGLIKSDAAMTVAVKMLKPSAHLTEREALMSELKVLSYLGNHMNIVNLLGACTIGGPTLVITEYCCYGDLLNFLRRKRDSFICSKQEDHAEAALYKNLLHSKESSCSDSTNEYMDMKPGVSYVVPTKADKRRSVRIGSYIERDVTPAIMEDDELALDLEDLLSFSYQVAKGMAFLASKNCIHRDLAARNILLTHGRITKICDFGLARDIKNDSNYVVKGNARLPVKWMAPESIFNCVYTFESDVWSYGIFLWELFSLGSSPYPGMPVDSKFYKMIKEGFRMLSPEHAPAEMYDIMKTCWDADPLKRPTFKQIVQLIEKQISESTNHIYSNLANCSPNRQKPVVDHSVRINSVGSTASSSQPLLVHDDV
Effect on: enzyme activity
Action: inhibitor
Concentration: 0.5 µM
Baseline: control
Endpoint: remaining activity
SMILES = O=S(=O)(c1cccc2cnccc12)N1CCCNCC1; value = 96.7%
SMILES = CCOC(=O)c1c(C)[nH]c(/C=C2\C(=O)Nc3ccccc32)c1C; value = 46.3%
SMILES = CC(C)[C@H](CO)Nc1nc(Nc2cc(N)cc(Cl)c2)c2ncn(C(C)C)c2n1; value = 86.2%
SMILES = O=C(Nc1cccc(Nc2cc(Nc3cccc(C(F)(F)F)c3)ncn2)c1)C1CC1; value = 99.9%
SMILES = Nc1ncnc2n[nH]c(Nc3ccc(F)cc3)c12; value = 93.5%
SMILES = Oc1ccc(-c2nc(-c3ccncc3)c(-c3ccc(F)cc3)[nH]2)cc1; value = 97.7%
SMILES = COc1cc2ncnc(Nc3ccc(Oc4ccccc4)cc3)c2cc1OC; value = 75.6%
SMILES = Cn1c2ccccc2c2c3c(c4c5ccccc5n(CCC#N)c4c21)CNC3=O; value = 96.9%
SMILES = N#CC(C#N)=C(N)/C(C#N)=C/c1ccc(O)cc1; value = 92.4%
SMILES = O=C1NC(=O)C(c2cn(CCCn3ccnc3)c3ccccc23)=C1Nc1ccccc1; value = 90.2%
SMILES = Nc1[nH]nc2nc3ccccc3nc12; value = 100%
SMILES = Cc1cccc(-c2[nH]c(C(C)(C)C)nc2-c2ccc3c(c2)OCO3)n1; value = 93.6%
SMILES = Nc1ccc2ncnc(NCCc3ccc(Oc4ccccc4)cc3)c2c1; value = 99.7%
SMILES = COc1ccc(OC)c2c(=S)c3ccccc3[nH]c12; value = 78.6%

Set 2
Compound: c1ccc(Oc2ccc(Nc3c4c(nc5ccccc35)CCC4)cc2)cc1
Organism: Leishmania donovani
Effect on: parasite killing
Strain: DD8
Endpoint: inhibition
matrix = promastigotes; concentration = 3.33 µM; time = 24 h; value = 53% and 51% and 43%
matrix = intracellular amastigotes; concentration = 0.02 µM; time = 72 h; value = 8% and 4%
matrix = intracellular amastigotes; concentration = 0.8 µM; time = 96 h; value = 74% and 75% and 71%
matrix = promastigotes; concentration = 66.66 µM; time = 96 h; value = 99% and 100%
matrix = promastigotes; concentration = 0.33 µM; time = 72 h; value = 19% and 20% and 24%

Set 3
Structure (SMILES): O=C1NC(c2ccccn2)Sc2ccccc21 (stereo not shown)
Effect on: cell-free assay
Technique: competition with immobilised ligand
Concentration: 1 µM
Endpoint: remaining binding
target = MATK (Homo sapiens, UniProt P42679); value = 100%
target = FES (Homo sapiens, UniProt P07332); value = 94%
target = CSNK1G1 (Homo sapiens, UniProt Q9HCP0); value = 90%
target = LATS1 (Homo sapiens, UniProt O95835); value = 98%
target = FLT3 (Homo sapiens, UniProt P36888, N841I); value = 60%

Set 4
Organism: Sarcocystis neurona
Effect on: parasite growth
Concentration: 10 µM
Notes: secondary screen
Endpoint: inhibition
SMILES = CC(=O)/N=c1/sc(S(N)(=O)=O)nn1C; value = -35%
SMILES = CCCNCC(O)COc1ccccc1C(=O)CCc1ccccc1 (stereo not shown); value = 63.8%
SMILES = CC(C(=O)O)c1ccc(-c2ccccc2)c(F)c1 (stereo not shown); value = -10.7%
SMILES = COc1cc(-c2ccc(=O)[nH]n2)ccc1OC(F)F; value = -45.9%
SMILES = N[C@@H](Cc1cc(I)c(Oc2cc(I)c(O)c(I)c2)c(I)c1)C(=O)O; value = -51.6%
SMILES = CNCCC(Oc1ccc(C(F)(F)F)cc1)c1ccccc1.Cl (stereo not shown); value = -30.8%

Further values, each from its own experiment
SMILES = CN(N=O)C(=O)N[C@@H]1[C@@H](O)[C@H](O)[C@@H](CO)O[C@@H]1O; host = mice, STZ diabetic neuropathy; dose = dose not given; time = 28 days after STZ; endpoint = blood glucose; value = 525 mg/dL and 489 mg/dL and 496 mg/dL and 505 mg/dL and 600 mg/dL

Some of these lines once more (set 4):
SMILES = CCCNCC(O)COc1ccccc1C(=O)CCc1ccccc1 (stereo not shown); value = 63.8%
SMILES = N[C@@H](Cc1cc(I)c(Oc2cc(I)c(O)c(I)c2)c(I)c1)C(=O)O; value = -51.6%
